Measured values pooled from the literature.
Compare with care: the assays were run in different laboratories.
Target: TGF-beta receptor type-2 (TGFBR2, Homo sapiens, UniProt P37173)

Structure (SMILES)	read-out	action	method	cell line	tested at	measurement	value
CCN1CCN(Cc2ccc(NC(=O)c3ccc(C)c(NC(=O)c4cncc(-c5cccs5)c4)c3)cc2C(F)(F)F)CC1	binding		competition with immobilised ligand		1 µM	remaining binding	25%
O=C(Cc1ccc(OCc2ccccc2)cc1)NC1(C(=O)O)CCN(C(=O)c2ccc(-c3cccc(Cl)c3)cc2)CC1	enzyme activity	inhibitor			10 µM	activity vs control	108%
Cc1ccc(C(=O)Nc2ccc(CN3CCN(C)CC3)c(C(F)(F)F)c2)cc1C#Cc1cnc2cccnn12	target engagement		NanoBRET	human cells		Hill slope	-15
Cc1cnc2nc1Nc1cccc(c1)COC/C=C/COCc1cc(ccc1OCCN1CCOCC1)N2	binding		competition with immobilised ligand		0.1 µM	remaining binding	100%
CC(C)=CC1OC(C)(C)C2C=C3C(=O)C(Cl)=CC(O)C3C3C(O)C4OC4C(=O)C132 (stereo not shown)	cell-free assay		competition with immobilised ligand		10 µM	remaining binding	100%
COc1cc(Nc2nc(C)cc(-c3cnn4nc(OC)ccc34)n2)cc(C(F)(F)F)c1	binding		competition with immobilised ligand		1 µM	remaining binding	100%
CNC(=O)C1CCN(c2cc(C)c(F)cc2NC(=O)c2ccc(-c3cc(O)ccc3C)c(C)c2)CC1	binding		competition with immobilised ligand		1 µM	remaining binding	19%
Cc1ccc(-c2c(/C=C(\C#N)C(=O)NC(C)C)n(CCCO)c3ncnc(N)c23)cc1	cell-free assay		competition with immobilised ligand		1 µM	remaining binding	74%
Nc1ncc2c(n1)-c1c([nH]c3ccc(C4=CCOCC4)cc13)CCC2	binding		competition with immobilised ligand		1 µM	remaining binding	100%
COc1ccc(O)cc1-c1c[nH]c2ncc(-c3cncc(C(=O)N(C)C)c3)cc12	binding		competition with immobilised ligand		0.2 µM	inhibition	1.5%
C=CC(=O)N1Cc2nc(-c3cc(-c4cc(Cl)cnc4Cl)c(F)cc3F)n(-c3ccncn3)c2C1	cell-free assay				1 µM	inhibition	9.4%
NC(=O)C[C@H]1CCc2sc3ncnc(O[C@H]4CC[C@H](N5CCOCC5)CC4)c3c21	enzyme activity	inhibitor			10 µM	inhibition	-8%
CCN1CCN(Cc2ccc(C(=O)Nc3ccc(C)c(NCc4cnc5[nH]ccc5c4OC)c3)cc2C(F)(F)F)CC1	binding		competition with immobilised ligand		1 µM	remaining binding	94%

For quick reference, copied from above:
Structure (SMILES)	read-out	action	method	cell line	tested at	measurement	value
Cc1ccc(-c2c(/C=C(\C#N)C(=O)NC(C)C)n(CCCO)c3ncnc(N)c23)cc1	cell-free assay		competition with immobilised ligand		1 µM	remaining binding	74%
Nc1ncc2c(n1)-c1c([nH]c3ccc(C4=CCOCC4)cc13)CCC2	binding		competition with immobilised ligand		1 µM	remaining binding	100%
